Measurements of several laboratories.
Parts stem from different laboratories: compare values within a part only.

Series 1
Target: Histone acetyltransferase KAT6A, winged helix 2, GST fusion (KAT6A, Homo sapiens, UniProt Q92794, residues 85-181)
Technique: protein binding microarray
Molecule type: double-stranded DNA, one strand shown
Medium: in vitro
Concentration: not given
Notes: 8-mer, flanks averaged, mean of 2 arrays, mostly near background
Reference: not given
Direction: higher = stronger binding
Measurement: E-score
Residues (chain): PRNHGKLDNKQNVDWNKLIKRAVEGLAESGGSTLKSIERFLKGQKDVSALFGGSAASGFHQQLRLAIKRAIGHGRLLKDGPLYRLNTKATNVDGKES
AACAAGGC: -0.15
GAGGGACA: 0.0457
AACGAAGT: -0.00384
TAGGAACA: -0.236
AAAAAAGT: 0.0526
TACGATCA: -0.117
GCTCGAAC: 0.0883
AAAAATCG: 0.0495
TCTTCCAA: 0.0794
CTTCCGGA: 0.182
CAATCTGG: 0.106
AATTACCG: -0.0783
ATTCTCTA: -0.0532
GACTGGGC: 7e-05
CATTAACC: 0.0697
CTCTGCGA: 0.07
ACACCCGG: 0.00785
AAGGGCAT: -0.0207
ACAAGGTC: -0.0447
CTGTGTTC: -0.0537
GGCGAGCA: 0.0393
ACAATCGC: 0.116
TAGACCTA: -0.114
CTAATTTA: 0.0589
AGCATATG: -0.0978

Series 2
Target: Hepatocyte nuclear factor 3-alpha (Foxa1, Mus musculus, UniProt P35582, residues 1-468, full length assumed)
Technique: EMSA with sequencing
Molecule type: double-stranded DNA, one strand shown
Medium: in vitro
Concentration: 10 and 20 nM
Notes: whole designed probe, mean of two concentrations, ends assumed
Reference: negative control set to 0
Direction: higher = stronger binding
Measurement: normalised bound fraction
Constant ends, left off below: GTGAGCGGTGCCCATTGATGGGGAAC … TTTCACTGGGATCGTGGGGAC
Target sequence (chain): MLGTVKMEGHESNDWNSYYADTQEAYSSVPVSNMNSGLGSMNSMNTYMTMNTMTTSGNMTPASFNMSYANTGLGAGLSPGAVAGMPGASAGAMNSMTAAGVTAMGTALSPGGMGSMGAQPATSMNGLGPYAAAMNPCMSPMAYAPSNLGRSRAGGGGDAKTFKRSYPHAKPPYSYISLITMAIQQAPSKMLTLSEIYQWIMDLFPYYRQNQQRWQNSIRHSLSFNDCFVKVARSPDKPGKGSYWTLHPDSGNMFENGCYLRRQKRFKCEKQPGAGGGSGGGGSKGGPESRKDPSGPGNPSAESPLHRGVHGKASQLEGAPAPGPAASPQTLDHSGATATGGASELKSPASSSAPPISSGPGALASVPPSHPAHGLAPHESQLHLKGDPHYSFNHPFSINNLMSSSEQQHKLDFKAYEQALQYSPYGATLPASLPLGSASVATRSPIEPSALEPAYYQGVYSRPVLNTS
TCGGCCAGCCTGGCTTCTGCGCCCCGCCAGGAGGTCGCGGAGCGGAGCGCGGCCAGGAAGTGAGCTGAGAGTGACAGCTCCCCCCACGCTGTTTGTTTATTCTCTCCACACACTGGATGACTCATTCCTCTTCTTTCTTTCGGGAGGAGGGGAGAAAGGAGCGGGAGGGCGGGCGGGCAGGGGAGAGGCAGGC: 0.323 ratio
CAGGCAGTTGGAAAGTTCCTATATGATGTGGGGCTGGGACTGGAGAAAGTGACATGTCATCATTAGGTTAGCTTTTTTGACATTTGTGTTTGCTTGTTTACTTTTTAATGTTGTTAACACATTTTTTATTGATCTGATAAAAACAGCAATTATCTTTAAAAGGAATGATTAGTTTCTTTTGTCTTTTGATTTG: 0.431 ratio
ATCTTGTAACTCACGCAGATTTGCAGGTTTCAAAAATTGTTATATATGACAGAAAAATCTGATTCTTAAATTATCCCTGTACCCAGAACTATGTAAACATGCCCGTAACCTGCTCTGAATACTCAAAATAGACTTTCATACATTTAGAGTTAATTTTTTAAATCAAAGAGTAGTTTTTAAAAGTGTAAACATT: 0.378 ratio
TAGGCCAGCGGTTTCTTGTATAAAGGAAACAAAAGTCATATAATTCCTTTTACTAAGGTCACTGACCTTTGCAGCTTCTTCCACGATGAGAGAGTAATCTGAAGATGACTAAGTGTTTTTGACATCCAAAGTCACCCACAGCCAGAACCAGAGTCTGGGAGAAGTGTATTTTGGACATCGTGACCTCAACTAT: -0.0622 ratio
TCAGAGCTGTCAGCCTACTTGGCAGGCGACCTGACACTTTAGCTGAGTCACATTTAAAAACAATTTCCTAAGAAGGGTGAGGTCACCATGAGAGCAAACACCACCAGGCCACAGCTTAATTACTAAGTTGCCAACCTTTAGCTTTCCCCAGAGCCCCCTTATAAAACATTCAGATATCTACTGCCCAACAGTG: 0.0268 ratio

Series 3
Target: TAR DNA-binding protein 43, full length, His tag (TARDBP, Homo sapiens, UniProt Q13148, residues 1-414)
Technique: RNA Bind-n-Seq
Molecule type: RNA
Medium: in vitro
Concentration: 20 nM
Notes: 6-mer, flanks averaged, single round
With: 150 mM LiCl
Reference: input library
Direction: higher = stronger binding
Measurement: 6-mer enrichment (R)
AUCCCG: 0.87
CCCGAC: 0.904
GUCCCA: 0.926
AAUAUG: 0.992
CGCUCU: 0.852
CUGGUC: 0.887
CCCGAA: 0.935
CAUUUC: 0.951
UUGAUA: 0.957
CCACCG: 0.944
CGCCUG: 0.9
CUGCCC: 1.05
GUCUCA: 0.853
GUAGAG: 1.16
GCCCCG: 1.1
UUGAUU: 1
UCCGUA: 0.856
GCACCG: 0.945
GGUUCC: 0.928
UGCUGC: 1.01
ACGUUU: 1.01
CUCAUU: 0.963

Series 4
Target: RING finger protein unkempt homolog, zinc fingers 1-6, GST-SBP tag (UNK, Homo sapiens, UniProt Q9C0B0, residues 30-357)
Chain of UniProt Q9C0B0 (30-357, looked up): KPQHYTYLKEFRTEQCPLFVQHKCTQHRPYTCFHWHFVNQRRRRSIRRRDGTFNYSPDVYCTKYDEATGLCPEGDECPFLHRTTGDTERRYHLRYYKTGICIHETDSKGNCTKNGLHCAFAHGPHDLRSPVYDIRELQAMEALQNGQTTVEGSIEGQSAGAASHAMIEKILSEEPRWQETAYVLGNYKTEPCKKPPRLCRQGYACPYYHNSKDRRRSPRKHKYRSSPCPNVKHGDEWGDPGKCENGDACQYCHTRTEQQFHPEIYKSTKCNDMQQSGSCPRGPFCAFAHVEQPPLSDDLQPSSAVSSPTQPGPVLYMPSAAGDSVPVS
Technique: RNA Bind-n-Seq
Molecule type: RNA
Medium: in vitro
Concentration: not given
Notes: RNA with constant flanks, human-mouse chimeric sites, ends assumed
Reference: input RNA pool
Direction: higher = stronger binding
Measurement: bound/input enrichment
Constant ends, left off below: GGGAGUUCUACAGUCCGACGAUC … CAACAGAGGAUUGAGCAUCA
GAUCUCGGGCCCUCCCCAGGGGCCUCCUUUCGUAUAGUCACUGCUUCUGCUACGGAUACUUUCAGCUGCAACUCCCUACUGGGUGGGGCACCCAUUUCAGGCAGAAGGUUUUGGUACCCU: 0.128 ratio
AAAGCCCAAGUAUUUUGAAAAAACUCGAACAGAUUUGACAAGGGUAGCCAGCUUGGAGUCUAGCAACUUGCCAAUGUUGCUUACCAACUGGGGGCUUGUUUUUCUUUUCUUCUUUCAAAU: 0.182 ratio
UGUGCAUUAUGAUGCUUAGAUGGUUUUUGCAAAAGCAGAAAUCGCUGCAAGGUCAUUACAAUAGAUAAAAGUGGUAUUUUAAACCUUUGAAAUAAAUGGAUGUAACUGUACCUUGGUACA: 0.536 ratio
CCCCAAUACCAUUUGCAGGUCUGGAACUGCACUCUCUUUUUUAAAAAACAUGUAUACAUUUUAGGGCUGUAGACUUACUUUCCUAUUUUUGUUUUUCAUUGCUGACUUUUGAGCACAGAA: 1.38 ratio
GGAAGUACAAUGAUGGAGAUUGAUGGUGACAAAGGCAAGCAGGGCGGUCCCACCUACUACAUAGACACCAAUGCCCUGCGUGUUCCGAGGGAGAACAUGGAGGCCAUCUCACCACUCAAG: 0.239 ratio
AGGAGGAGGUUAAAGGGUGAGAGUGGGGUGGAAGACUGUGUCAUGGCCCUAGAAACCUUGUUUAGUGUCCUGCUUUCUCUGUGCAGACUGAUGGCCCCUUACACGCCCUUUCUGACUGAG: 0.125 ratio
GCUCCUCCCCGCUCUGCAGCCUGGGGACACUGGGCUGGGACCAGAAUCUUAUUUUUUUUUAAAACUCUCAGUGUAACUGUAUCCCGUGACAUUUCAUUUUUUUUUUAUAGUGUAUUUUUU: 42.6 ratio
ACACAAUAUGAGACCAACAGCAUGGACUUCAAAGUUGGGGCGGAUGGGACAGUCUUCGCCACCCGGGAGUUGAAGAUCCCCUCCGAGCAGGUGGCGUUCACGGUGACUGCAUGGGACAGC: 0.501 ratio

Series 5
Target: RNA binding protein fox-1 homolog 2, RRM domain, GST-SBP tag (RBFOX2, Homo sapiens, UniProt O43251-10, residues 100-194)
Technique: RNA Bind-n-Seq
Molecule type: RNA
Medium: in vitro
Concentration: 365 nM
Notes: natural RNA segment, single round, ends assumed
Reference: no-protein control
Direction: higher = stronger binding
Measurement: RBNS enrichment (R)
Constant ends, left off below: GGGAGUUCUACAGUCCGACGAUC … UGGAAUUCUCGGGUGCCAA
Residues (chain): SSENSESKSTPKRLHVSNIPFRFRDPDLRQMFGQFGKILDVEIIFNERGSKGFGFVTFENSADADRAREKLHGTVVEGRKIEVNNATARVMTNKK
GAGAAAACAGACAUCACCCUCUACUGCGGGGCCACACCACAUCAGUAGGACACCCCAUACCCAGGCUUGGAGGAGUGCACGCCACACCAAGCCUCUGGGUAGAAUCUGAU: 0.862
CAUGGUGCUCAAUAUCUUGGCCAAAUAAGUUACUUCCCUUGAAUAUCCAGGAAUUUUAAACUAAAGCAAUGAGUUGUCUGUCACCUUGCCCUGGAACUCCAGCGUAACCU: 0.623
AUUUGCCAUGAGUAUAGUUGAAAUCACCAUAGCAAACUCAGGGUAAGUGUGGGCUUUUGUUUCUUACAUUCCUCUGCAAUGGCCUGGCUGGCCUGGUGACCUCUAGGACC: 0.342
UUCCCUCUUCAGGCCCUGGUGGCGGCGGCGUGUACACCUUCCCGAGGAAACUCCGCUGCCGACCCUGCCUGAGCGCGGGAGCCUGAGGACCGGGUGGAGGCGGUGGGGAC: 0.381
UACUUAUGGUGAAAGAGGACAUUUUUUUUUUCUUCAGGAUAGUUGAAAGGGCAGGCCCAACGGCUGAGAUUGACAUUUCCACUGUUGGUAGAGAGCUGUUAUUUCUAAAG: 0.273
GAUAAUUUUUAGCCUUUCCAAAAUGCAAAUAACUUGGAUAUAUUUCCAUUUUCCAGCUAUAGAGAGAAACAAUCCAGCUGCCUGGAAACUGUUAUUAGUAUAGAAGUGGC: 0.541
GUACUUUACCAGAGAGGUGUACAUACUUCUUUUCAGUGUUGUGACCAAGUGCUGCGACUCAGCCAACAACUUACCACAUUCGGGGCUGGGAGCUGUUCUAAGAAAGGGAC: 0.319
GAGUGUGCUGUUUUCAGAGAUGGGUCUUAGUAUUCCCAUUUAGCCCACUCAGCAUACACCCUCAAAAGACUCCCUCAGGAAACCACUAGUUCCUGUCACCUGCCCUCUGG: 0.337

Repeated from above (series 1):
CATTAACC: 0.0697
AACGAAGT: -0.00384
CTGTGTTC: -0.0537
AATTACCG: -0.0783
